Results from different studies.
Compare with care: the assays were run in different laboratories. Values joined by “and” are separate records of one study, mostly repeats; a detail may differ. Numbers after ± are the reported error.
UniProt Q4U2R8, sequence (whole entry, looked up): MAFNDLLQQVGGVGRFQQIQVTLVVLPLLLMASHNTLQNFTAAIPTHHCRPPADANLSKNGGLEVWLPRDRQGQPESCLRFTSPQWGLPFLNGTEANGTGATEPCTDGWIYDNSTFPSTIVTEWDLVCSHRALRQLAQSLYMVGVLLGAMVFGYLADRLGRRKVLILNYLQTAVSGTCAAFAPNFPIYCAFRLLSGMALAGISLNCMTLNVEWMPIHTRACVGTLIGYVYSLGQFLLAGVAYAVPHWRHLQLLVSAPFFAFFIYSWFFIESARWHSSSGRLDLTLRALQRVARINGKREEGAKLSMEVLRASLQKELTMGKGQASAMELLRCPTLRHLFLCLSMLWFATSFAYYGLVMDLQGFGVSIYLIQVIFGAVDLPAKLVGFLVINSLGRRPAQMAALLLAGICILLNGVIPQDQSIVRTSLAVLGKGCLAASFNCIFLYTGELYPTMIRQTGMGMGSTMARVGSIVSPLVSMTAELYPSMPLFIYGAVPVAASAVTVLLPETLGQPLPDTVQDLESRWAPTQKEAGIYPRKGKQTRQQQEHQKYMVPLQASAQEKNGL
UniProt P15056, sequence (whole entry, looked up): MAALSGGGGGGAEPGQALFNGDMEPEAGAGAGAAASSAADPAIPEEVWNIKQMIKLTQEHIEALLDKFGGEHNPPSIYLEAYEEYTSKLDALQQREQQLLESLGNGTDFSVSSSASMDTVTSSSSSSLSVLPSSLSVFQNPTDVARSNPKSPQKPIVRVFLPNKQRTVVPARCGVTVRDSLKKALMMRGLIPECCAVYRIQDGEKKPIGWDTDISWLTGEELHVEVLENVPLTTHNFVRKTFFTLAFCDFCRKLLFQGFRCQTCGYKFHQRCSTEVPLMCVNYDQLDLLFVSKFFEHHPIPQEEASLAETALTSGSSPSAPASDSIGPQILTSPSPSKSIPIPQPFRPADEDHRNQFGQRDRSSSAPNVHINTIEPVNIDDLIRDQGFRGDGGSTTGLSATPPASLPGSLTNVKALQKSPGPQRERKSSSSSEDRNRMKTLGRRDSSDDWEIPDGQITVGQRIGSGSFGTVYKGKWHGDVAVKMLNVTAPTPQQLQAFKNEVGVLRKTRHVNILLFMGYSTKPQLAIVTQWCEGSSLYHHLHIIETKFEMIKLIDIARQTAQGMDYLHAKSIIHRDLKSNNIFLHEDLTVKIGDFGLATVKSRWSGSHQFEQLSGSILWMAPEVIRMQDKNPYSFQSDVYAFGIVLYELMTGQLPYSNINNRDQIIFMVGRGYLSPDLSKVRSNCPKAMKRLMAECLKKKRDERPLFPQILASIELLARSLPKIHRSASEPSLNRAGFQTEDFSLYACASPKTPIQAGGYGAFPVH

Structure (SMILES) = Cc1nc2cccc(OCC(C)(C)C(=O)NC(C)C)c2c(N)c1C(=O)[O-].[Na+]; tested on = Salmonella typhimurium; system = TA100; conditions = 0.13 mg per plate, without S9, preincubation; endpoint = revertant colonies per plate; value = 132 ± 3
Structure (SMILES) = CCn1ccc(-c2cc(C(C)NC(=O)c3cc(N4CC5CC4CN5C)ccc3C)c3ccccc3n2)n1 (stereo not drawn); tested on = Vero E6; conditions = 125 µM; endpoint = viability; value = 1.34% and 2.88% and 0.96%
Structure (SMILES) = O=C1CC[C@@]2(O)[C@H]3Cc4ccc(O)c5c4[C@@]2(CCN3CC2CCC2)[C@H]1O5; system = octanol/phosphate buffer; conditions = 1 h, pH 7.45, ionic strength 0.15 M; endpoint = logD; value = 1.29
Structure (SMILES) = Cc1ccc(OC[C@@H]2CCCN2C)cc1C(=O)N[C@H](C)c1cc(-c2cnn(C)c2)nc2ccccc12; tested on = Vero E6; conditions = 500 µM; endpoint = viability; value = 0.565% and 3.01%
Structure (SMILES) = COc1ccccc1-c1n[nH]c2nc(N[C@H]3CC[C@H](NS(=O)(=O)CC(C)C)CC3)ncc12; test = bead binding, competition bead pull-down, item: LINJ.35.1230; system = Leishmania donovani extract; conditions = 10 µM; how to read = relative to: vehicle; endpoint = relative abundance; value = 1.1
Structure (SMILES) = O=C1NC2(CC2)COc2ncc(F)cc2[C@H]2COCCN2c2ccn3ncc1c3n2; system = Sprague-Dawley rat, female, spleen; conditions = oral, 10 mg/kg/day, 4 weeks, end of treatment; endpoint = organ-to-brain weight ratio; value = 58.5 ± 12.8%
Structure (SMILES) = C[C@@H](N1CN([C@H]2c3ccccc3CSc3ccccc32)n2cc(C(=O)O)c(=O)c(O)c2C1=O)C(F)(F)F; system = hamster cells; endpoint = CC50; value = > 10 µM
Structure (SMILES) = Cc1ccc(N2CCN(C)C3(CC3)C2)cc1C(=O)N[C@H](C)c1cc(-c2cnn(C)c2)nc2ccccc12; tested on = Vero E6; conditions = 15.62 µM; endpoint = viability; value = 99% and 102% and 104%
Structure (SMILES) = COc1ccccc1-c1n[nH]c2nc(NC3CCN(C(=O)Cc4ccc(F)cc4F)CC3)ncc12; test = bead binding, competition bead pull-down, item: LINJ.29.2310; system = Leishmania donovani axenic amastigote extract; conditions = 10 µM; how to read = relative to: vehicle; endpoint = relative abundance; value = 0.95
Structure (SMILES) = CS(C)(=O)=Nc1ccc(-c2ccc(-c3nc4cc(O[C@@H]5CO[C@H]6[C@@H]5OC[C@H]6O)[nH]c4cc3F)cc2)cc1; tested on = Serine/threonine-protein kinase B-raf (BRAF, Homo sapiens, UniProt P15056); test = enzyme activity, inhibitor; conditions = 10 µM; endpoint = inhibition; value = 5%
Structure (SMILES) = Cc1cc(-c2ccc3ccccc3c2)nnc1NCCN1CCN(C)CC1; tested on = Solute carrier family 22 member 6 (SLC22A6, Homo sapiens, UniProt Q4U2R8); test = transporter uptake, inhibitor; conditions = 10 µM; endpoint = inhibition; value = 3%
Structure (SMILES) = CC(C)(C)C(=O)OCOP(=O)(OCOC(=O)C(C)(C)C)C1CCCN(O)C1=O (stereo not drawn); tested on = SW-620; endpoint = CC50; value = > 100 µM
Structure (SMILES) = N=C(N)NCCC[C@@H]1NC(=O)[C@H](CCCCNC(=O)CCC(NC(=S)Nc2ccc(CC3CN(CC(=O)O)CCN(CC(=O)O)CCN(CC(=O)O)CCN3CC(=O)O)cc2)C(=O)NCCCC[C@@H]2NC(=O)[C@@H](Cc3ccc(O)cc3)NC(=O)[C@H](CC(=O)O)NC(=O)CNC(=O)[C@H](CCCNC(=N)N)NC2=O)NC(=O)[C@@H](Cc2ccc(O)cc2)NC(=O)[C@H](CC(=O)O)NC(=O)CNC1=O (stereo partly drawn) [scandium-44 labelled]; test = ex vivo γ-counting; system = female athymic nude mice, U-87 MG xenograft, pancreas; conditions = intravenous, 4 h; endpoint = tissue uptake; value = 0.15 ± 0.06 %ID/g
Structure (SMILES) = CC1(F)CN(C(=O)Cn2c(=O)c(C(=O)NCc3ccc(Cl)cc3)cc3nc(N4CCN(CCN)C4=O)cnc32)C1; tested on = Epstein-Barr virus; test = qPCR; conditions = single first test; how to read = relative to: CC50 over EC50; endpoint = selectivity index; value = 79.7
Structure (SMILES) = CN1CC[C@]23c4c5ccc(O)c4O[C@H]2[C@H](O)CC[C@@]3(O)[C@H]1C5; system = octanol/buffer; conditions = 1 h, pH 7.4; endpoint = logD; value = -1.07
